Experimental data from different studies.
A part holds a random share of what one study measured. Substitutions count along the parent as printed.

Set 1
Target: Histone acetyltransferase KAT6A, both winged helices, GST fusion (KAT6A, Homo sapiens, UniProt Q92794, residues 1-181)
Method: protein binding microarray
Molecule type: double-stranded DNA, one strand shown
Sample: in vitro
Concentration: not given
Setting: 8-mer, flanks averaged, mean of 2 arrays, mostly near background
Reference: not given
Direction: higher = stronger binding
Residues (chain): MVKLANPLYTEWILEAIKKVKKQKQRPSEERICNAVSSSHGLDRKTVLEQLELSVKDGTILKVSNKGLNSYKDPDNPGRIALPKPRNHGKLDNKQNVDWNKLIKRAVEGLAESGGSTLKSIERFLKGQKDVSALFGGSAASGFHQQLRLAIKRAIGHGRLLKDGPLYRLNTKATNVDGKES
Strand	E-score
GCGCGGGA	0.333
ACTTAGAG	-0.218
GTTTCACA	0.0614
AACCTTTC	0.0206
CGGAGGTC	0.0316
ACAAACGA	-0.0949
CTGCGGCC	0.213
ACACTTAC	0.0901
CCCTAGCG	-0.00465
CAAGCGTC	0.145
CAGAAACG	-0.00311
AGATGACC	0.0675
AAGTTCAG	-0.195
ACATGTCA	0.0601
ATCGATTC	-0.108
ACTCGCAA	-0.0197
CGAGCCAG	-0.00785
TATAATGA	-0.0215
TAAAGGGA	-0.0587
AATATGAC	-0.139
CCGACGTC	0.165
AGAGAGAG	-0.213
ATCTCGGG	-0.0285
CAATCATG	-0.118
CTTGGTCA	-0.244

Set 2
Target: CRIPT, C-terminal peptide
Method: DHFR complementation, deep sequencing
Sample: yeast
Setting: single substitutions, model-inferred values
Reference: wild type
Direction: higher = weaker binding
Starting sequence: ERBIN, PDZ domain 1 (human); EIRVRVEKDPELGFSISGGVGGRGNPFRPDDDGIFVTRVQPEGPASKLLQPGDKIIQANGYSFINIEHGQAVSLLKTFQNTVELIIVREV; partner TKNYKQTSV
Change	binding free energy change
R23M	-0.302 kcal/mol
I16K	1.43 kcal/mol
P29Q	0.0644 kcal/mol
D30F	0.344 kcal/mol
F78Y	0.207 kcal/mol
R23P	0.444 kcal/mol
V20L	-0.113 kcal/mol
T37E	1.12 kcal/mol
N59R	-0.0234 kcal/mol
V90A	0.00152 kcal/mol
S17L	1.4 kcal/mol
R23N	-0.614 kcal/mol
V36C	0.167 kcal/mol
I56R	0.129 kcal/mol
S73E	0.0665 kcal/mol
R5V	0.129 kcal/mol
I34L	0.536 kcal/mol
I56K	0.0698 kcal/mol
G22N	0.16 kcal/mol
I2H	0.117 kcal/mol
D31L	0.94 kcal/mol
T37Y	0.658 kcal/mol

Set 3
Target: Sal-like protein 4, full length isoform A (SALL4, Homo sapiens, UniProt Q9UJQ4, residues 1-1053)
Sequence of UniProt Q9UJQ4 (whole entry, looked up): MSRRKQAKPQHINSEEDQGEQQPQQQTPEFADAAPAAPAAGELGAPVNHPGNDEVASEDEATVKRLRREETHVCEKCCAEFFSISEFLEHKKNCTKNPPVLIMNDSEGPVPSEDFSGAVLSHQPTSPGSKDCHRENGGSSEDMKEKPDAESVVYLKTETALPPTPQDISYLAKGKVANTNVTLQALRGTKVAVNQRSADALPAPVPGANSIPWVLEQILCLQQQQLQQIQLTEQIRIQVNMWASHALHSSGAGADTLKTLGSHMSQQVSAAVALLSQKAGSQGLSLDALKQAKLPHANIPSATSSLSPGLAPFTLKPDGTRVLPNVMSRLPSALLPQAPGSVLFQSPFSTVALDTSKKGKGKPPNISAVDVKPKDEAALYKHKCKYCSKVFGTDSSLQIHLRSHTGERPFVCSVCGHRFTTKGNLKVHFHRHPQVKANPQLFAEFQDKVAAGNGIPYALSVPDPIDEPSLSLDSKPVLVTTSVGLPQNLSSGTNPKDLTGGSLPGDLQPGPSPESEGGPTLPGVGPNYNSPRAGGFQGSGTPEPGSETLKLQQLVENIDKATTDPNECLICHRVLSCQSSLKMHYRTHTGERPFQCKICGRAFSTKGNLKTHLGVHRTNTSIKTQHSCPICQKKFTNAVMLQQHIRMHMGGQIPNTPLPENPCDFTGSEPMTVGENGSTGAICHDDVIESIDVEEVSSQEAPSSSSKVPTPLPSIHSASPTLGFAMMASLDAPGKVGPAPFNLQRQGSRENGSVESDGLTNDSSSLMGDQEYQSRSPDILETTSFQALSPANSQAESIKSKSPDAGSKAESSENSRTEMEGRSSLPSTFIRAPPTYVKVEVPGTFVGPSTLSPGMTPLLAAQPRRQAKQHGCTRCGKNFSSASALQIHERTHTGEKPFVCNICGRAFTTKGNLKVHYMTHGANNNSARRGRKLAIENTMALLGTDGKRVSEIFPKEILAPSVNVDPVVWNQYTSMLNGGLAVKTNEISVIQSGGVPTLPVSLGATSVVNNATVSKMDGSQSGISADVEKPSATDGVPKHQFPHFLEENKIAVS
Method: universal PBM
Molecule type: double-stranded DNA, one strand shown
Sample: in vitro
Concentration: 600 nM
Setting: 8-mer, flanks averaged, mean of replicates
Direction: higher = stronger binding
Strand	E-score
GAACTAGC	-0.133
CCTGGAGA	-0.177
CGTATCGC	-0.181
AAGATAGC	0.0985
AGCGCAAT	0.0897
AAGAGCCC	-0.252
TAGCGCAA	0.157
GAGGAACC	-0.206
ACTCGTAT	0.096
CCCCCTCA	-0.311
CCCGGCCC	-0.422
AGGAGTAA	0.0837
ACGGGTTC	-0.249
GGCAGACC	-0.348
AACGAGAG	0.125
ATTTTCCG	0.319
AAGGACCT	0.0104
ACTTGTAA	0.25

Set 4
Target: Centromere-binding protein 1, full length, N-terminal tag (CBF1, Saccharomyces cerevisiae, UniProt P17106, residues 1-351)
Sequence of UniProt P17106 (whole entry, looked up): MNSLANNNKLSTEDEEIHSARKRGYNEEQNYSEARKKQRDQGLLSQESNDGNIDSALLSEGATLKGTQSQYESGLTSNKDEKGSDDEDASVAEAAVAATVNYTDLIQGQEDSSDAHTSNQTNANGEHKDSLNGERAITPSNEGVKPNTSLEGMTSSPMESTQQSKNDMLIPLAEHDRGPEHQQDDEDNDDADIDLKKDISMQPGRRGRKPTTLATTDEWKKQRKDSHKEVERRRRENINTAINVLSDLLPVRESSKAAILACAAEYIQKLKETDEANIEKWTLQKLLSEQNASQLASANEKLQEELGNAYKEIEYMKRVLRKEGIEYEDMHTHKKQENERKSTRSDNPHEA
Method: protein-binding microarray
Molecule type: double-stranded DNA, one strand shown
Sample: in vitro
Concentration: 0.8 µM
Setting: whole 60-bp probe, no competitor
Direction: higher = stronger binding
Shared flanks, not repeated: … GTCTTGATTCGCTTGACGCTGCTG
Strand	fluorescence intensity [a.u.]
CTAGAGCCAAGACAAAACGTGGCAGGGAAGCTTTTC	546
CTATACATGCCGGGGCTCGTGCTTATTCATATTTTC	578
CTATTACAAGTGTGTCACCATTTCCGGCCCACCTTC	523
TGTACGAAGCTATGTGACGTTTGTATAGTAGTTAGG	533
CTAATTGAAGTGAGTGTCACGTGCACAGCGACGTTC	19000
CTACTCTTTAGCAATGGTGACATATAGATCTCATTC	511
CCTAACTACTATACAAGCGTGCCATAGCTTCGTACA	534
CTATTATATGGTAAATACGTGACAGTGTTCTACTTC	614
GAACGAATTTAATACTGCCTGACGGCGTGCCACTAG	565
CCTAACTACTATAATCATGCCGGATAGCTTCGTACA	548
GAAAAGGCCACCGCTGGTGACACCCATTTGGGTTAG	483
GAATTCAAAGATAATTTTGTCACGTTTGTTCTGTAG	1400
CTATTTTGGAAAAGCAACGTGCGCAACAATGAATTC	704
CTAGCAACGTTGCTCCTCACCTGCATCTTGTAATTC	542
CTATTGGCGAATCGCCACATGCCATTTACGTAATTC	528
GAACACTTTTTATGCACGTGCATCGTACAATTATAG	10900
GAACGTGGAGCAAGCCACGCCATGTGATTAACCTAG	2930
CTAGGTGCGGCGGGTCACCTGCCAGCTTGCCTGTTC	2020
CTAAATAATCTAAGACACGTTGCATTATACATGTTC	588

Set 5
Target: Ras GTPase-activating protein-binding protein 1, RRM domain (G3BP1, Homo sapiens, UniProt Q13283)
Sequence of UniProt Q13283 (whole entry, looked up): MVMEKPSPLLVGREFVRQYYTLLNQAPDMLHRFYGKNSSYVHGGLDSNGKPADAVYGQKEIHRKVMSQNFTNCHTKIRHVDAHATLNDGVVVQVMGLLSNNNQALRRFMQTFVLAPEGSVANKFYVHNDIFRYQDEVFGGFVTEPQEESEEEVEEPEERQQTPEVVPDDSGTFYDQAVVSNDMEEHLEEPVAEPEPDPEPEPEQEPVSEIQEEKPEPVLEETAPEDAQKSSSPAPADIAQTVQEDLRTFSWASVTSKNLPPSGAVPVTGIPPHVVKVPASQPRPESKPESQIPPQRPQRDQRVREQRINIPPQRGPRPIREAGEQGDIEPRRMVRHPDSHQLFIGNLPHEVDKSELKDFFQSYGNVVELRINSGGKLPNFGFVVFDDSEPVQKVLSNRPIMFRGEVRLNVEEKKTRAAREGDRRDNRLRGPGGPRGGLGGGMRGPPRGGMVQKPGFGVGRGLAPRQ
Method: RNA Bind-n-Seq
Molecule type: RNA
Sample: in vitro
Concentration: 1 µM
Setting: whole 134-nt RNA, ends assumed
Together with: 150 mM KCl
Reference: input library
Direction: higher = stronger binding
Shared flanks, not repeated: GGGAGUUCUACAGUCCGACGAUC … UGGAAUUCUCGGGUGUCAAGG
Strand	log2 enrichment
CUGUGCUACACAUCGUAUGUACCGAAUCGGGGAAAAAAAGGAAAAAAAGGGGAAAAAAAGGAAAGUAUUAUGUUACGCCGUUCGGAUCUG	0.0556
AAGUCCUGUGCUACACAUCGUAUGUACCGAAUCGGAAAAGGGGAAAAGGAAAAGGGAAAGUAUUAUGUUACGCCGUUCGGAUCUGCACUU	-0.204
CCUGUGCUACACAUCGUAUGUACCGAAUCAAAUUUUUUUAAAUUUUUAAACCCCCCCAAAAAAGUAUUAUGUUACGCCGUUCGGAUCUGC	-0.987
GUCCUGUGCUACACAUCGUAUGUACCGAAUCGGGGUUUGGGGAAAGGGGUUUUUGGGGAAAGUAUUAUGUUACGCCGUUCGGAUCUGCAC	1.57
UGGCCCUGGUGGCAUGCGGGGAGGAAGAAGUGGCCUCAUGGAUCGUGGUGGUCCCGGUGGAAUGUUCAGAGGUGGCCGUGGUGGAGACAG	0.837
CCUGUGCUACACAUCGUAUGUACCGAAUCGGGGAAAAAAGGAAAAAAGGGAAAAAAGGGGAAAGUAUUAUGUUACGCCGUUCGGAUCUGC	-0.0216
AGUCCUGUGCUACACAUCGUAUGUACCGAAUCGGUUUUUGGAAAAAGGUUUUUUUGGAAAGUAUUAUGUUACGCCGUUCGGAUCUGCACU	-0.404
UAACUUUAGAGGAGGAUCUGAUGGAUAUGGCAGUGGACGUGGAUUUGGGGAUGGCUAUAAUGGGUAUGGAGGAGUACCUGGAGGUGGCAA	-0.236
UCCUGUGCUACACAUCGUAUGUACCGAAUCAAAGUGUGUGUGUGUGUGUGUGUGUGUAAAAAAGUAUUAUGUUACGCCGUUCGGAUCUGC	0.0886

Excerpt of the above (set 4):
Strand	fluorescence intensity [a.u.]
CTATTTTGGAAAAGCAACGTGCGCAACAATGAATTC	704
GAATTCAAAGATAATTTTGTCACGTTTGTTCTGTAG	1400
CTAATTGAAGTGAGTGTCACGTGCACAGCGACGTTC	19000
CTAGCAACGTTGCTCCTCACCTGCATCTTGTAATTC	542
CTATTGGCGAATCGCCACATGCCATTTACGTAATTC	528
CTAGAGCCAAGACAAAACGTGGCAGGGAAGCTTTTC	546
GAACACTTTTTATGCACGTGCATCGTACAATTATAG	10900
CCTAACTACTATAATCATGCCGGATAGCTTCGTACA	548
CTACTCTTTAGCAATGGTGACATATAGATCTCATTC	511
CTATACATGCCGGGGCTCGTGCTTATTCATATTTTC	578
